# Assay results of several laboratories.
# Every numbered part comes from another study and shows a few of its results, in no order. Positions count from the first letter of the parent shown.

# Sample 1 — technique: RNA Bind-n-Seq; molecule type: RNA; medium: in vitro; concentration: 365 nM; baseline: no-protein control; reading: higher = stronger binding
# Target: RNA binding protein fox-1 homolog 2, RRM domain, GST-SBP tag (RBFOX2, Homo sapiens, UniProt O43251-10, residues 100-194)
# Setting: natural RNA segment, single round, ends assumed
# Shared flanks, not repeated: GGGAGUUCUACAGUCCGACGAUC … UGGAAUUCUCGGGUGCCAA
# Target sequence (chain): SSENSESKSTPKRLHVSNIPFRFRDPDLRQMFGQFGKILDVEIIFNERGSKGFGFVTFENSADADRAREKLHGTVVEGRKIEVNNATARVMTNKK
Strand,RBNS enrichment (R)
AGCGAGACCCCACCUGAGACAGGCAGUAGGAGCCUGUGCUGACCUUGGGGAAUCUGAGCUUUUCCAAGGGUAAGGGGCCCAGGGUAUGCAGGCCUUCAGUGACAUCAGGU,0.944
AGAAGCAAGCCUCUUACAUAUUAGGAAAAUACCUGAAAAGUUAGUUCAUUUGUCAGAUCCAGUUUUCCUACAUACAUCUUUGUUCACAGUAUGCUAAGGGGAAAAAAAAA,0.453
CAGGGGGCUGUGUCUGCGUGUCAGUUUGUGUCUGUCUCGGGGAAUGUGUGUCUGUGGCCCAAGCAGGUGACAGGAAGAGAUGGGGGGCCUCAACCAACUUAGUGACUUGU,2.62
GCGAAGCCAUGCUGGGCGGGAGCUGCACCUGCUGGCGUGGCUCUUCUCACUGAGCUCCUCGCCCCAAAUAUCCCGGUGCUGCCCCUGCUGUCCAGGCUCCAGUGUGACAA,0.466
UGUGCUGUACACCCCGUUAGUCCCUGAUCCCAACCUUCUCCCUCCUGCCAGCACACCGAUGCACACACCGGAAGUGGCGAGCCCAAGCCCUGGGGACAGGUGUAGGGAGA,1.22
UGCUGGGUCCUGUCUCUUUUGACUAAUAUUUUCGUAAACAUUAGGCUGGAGAAAGGAAGGAAGCAGUGGUUUCCUUAGAUAACUACAGAAUUAUACUGGUCUCUGGGAUU,0.227
UAUGUCCUGUCUGCCAGCGUUCCCUGUACUAUAGGCCUGUGUAUAGUGUAGGGCAGAGCGUUGACCCACUGGCUAGUGCUUGACUUGGGAAUCAGGACAGUACCUGUACA,0.703
ACUAAUUUUGAAAGUCAUGUAACUUCUUUUGAUAUCUGGGCAAAAGUAACCAUAUGCUAUAAGCAUUUGAAUAUGUUUAAUUUUAUCAUAAUAGCAUCUGUAAAAGUACA,0.592
GGUCUUUGCCAUCAAGGGUAUUUGGGUGACAUUUCAAAAUUUGUCCUCAUUAAAUGGAUGGGUGGGCCUUUUUAGUGCUUUGGAGCCUUGGCAGAUGUCAGGGAGGAAUA,1.31
ACUAGUAAGAUCAGAUUUUUGGGUCAUGUCUGUUGUAUUUUCAGUAAUGUGAUUUCAGAUGGUCAUCUGGAUUCUCCCACUUCUCUACUCCAUUAUUUCUCUACUUUUCC,0.742
CCAGCACCAGCGGUCUUCCGGCUCCUCUGAGGGCUGCCACGUUGGGCGAGGGGAGCCAUGCCAAGGGUCCAGGCUGCUUUAGGCCAUCUGUGCCCCACUCAUCUGGGGAC,0.595
UCUGCAGGCUGUGUAAGCAUGUUUACCUGUUGGCUUGCUUUGUGUGUCUGUUAAAUGAAUGUCAUAUGUAAAUGCUAAAAUAAAUCGACAGUGUCUCAGAACUGAAUAAC,19.8

# Sample 2 — technique: RNA Bind-n-Seq; molecule type: RNA; medium: in vitro; concentration: 200 nM; setting: whole 134-nt RNA, ends assumed; together with: 150 mM LiCl; baseline: input library; reading: higher = stronger binding; each molecule: 7-deaza-guanosine replaces G
# Target: Ras GTPase-activating protein-binding protein 1, full length (G3BP1, Homo sapiens, UniProt Q13283)
# UniProt Q13283, sequence (whole entry, looked up): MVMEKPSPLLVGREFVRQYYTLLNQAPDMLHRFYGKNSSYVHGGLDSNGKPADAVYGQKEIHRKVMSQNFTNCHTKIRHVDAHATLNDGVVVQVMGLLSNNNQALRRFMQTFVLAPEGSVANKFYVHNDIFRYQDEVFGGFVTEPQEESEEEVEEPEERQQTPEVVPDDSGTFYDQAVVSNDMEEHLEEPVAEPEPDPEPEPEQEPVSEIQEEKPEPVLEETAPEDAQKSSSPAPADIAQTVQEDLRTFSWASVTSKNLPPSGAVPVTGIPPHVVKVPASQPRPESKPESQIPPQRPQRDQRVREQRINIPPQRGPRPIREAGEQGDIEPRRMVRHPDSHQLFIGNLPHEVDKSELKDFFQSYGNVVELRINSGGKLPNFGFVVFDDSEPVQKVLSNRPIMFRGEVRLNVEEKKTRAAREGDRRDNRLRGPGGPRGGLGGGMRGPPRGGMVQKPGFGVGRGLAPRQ
# Shared flanks, not repeated: GGGAGUUCUACAGUCCGACGAUC … UGGAAUUCUCGGGUGUCAAGG
Strand,log2 enrichment
UAACUUUAGAGGAGGAUCUGAUGGAUAUGGCAGUGGACGUGGAUGUGGGGAUGGCUAUAAUGGGUAUGGAGGAGGACCUGGAGGUGGCAA,0.0632
CACAGACAACACGCACCCACACAGACACAGAGGGAAGGGGUUGGGAUGGGGACAGGGUGCACAGCAGGGCGGGGUAGGACCCCAGCCCCA,-0.143
UAACUUUAGGGGAGGAUCUGAUGGAUAUGGCAGUGGACGUGGAUUUGGGGAUGGCUAUAAUGGGUAUGGAGGAGGACCUGGAGGUGGCAA,-0.153
UCAAGUCCUGUGCUACACAUCGUAUGUACCGAAUCGGAAAAAGGAAAGGAAAGGAAAGUAUUAUGUUACGCCGUUCGGAUCUGCACUUCC,-0.627
AUGGAUGACCCCUCUGUGGGCCCCAAGAUCCCCCAGGCUUUGGAGAAGAUCCUGCAGCUGAAGGAGAGCCGCCAGGAAGAGAUGAAUUCU,1.07
GUCCUGUGCUACACAUCGUAUGUACCGAAUCGGGGUUUGGGGAAAAAAAGGGGUGGGGAAAGUAUUAUGUUACGCCGUUCGGAUCUGCAC,-1.36
ACCAUGCAGGUGGGCAUCUUUGGGACGUGGGGCAAGGGGGGGAUAGGGAGGGGGGUAACACUUUGGGAACAGGUGGUCCCAGGUCGUUUC,0.24
GCAGGAAGUAAAAACAAAUGGAAAUGCUUCGGAUAGUGGCAGGGGUGGGGGUGGCUAAGGAAAGGGUGGGAUGGGAGUGGGUAAAGAGUU,0.0816
ACCAUGCAGGUGGGCAUCUUUGGGAAGUGGGGCAAGGGGGGGAUAGGGAGGGGGGUAACACUUUGGGAACACGUGGUCCCAGGUCGUUUC,0.0544
GCAGGAAGUAAAAACAAAUGGAAAUGCUUCGGAUAGUGGCAGGGGUGGGGGUUGCUAAGGAAAAGGUGGGAUGGGAGUGGGUAAAGAGUU,0.0153
CACAGACAACACGCACCCACACAGACAAAGAGGGAAGGGGUUGGGAUGGGGACAGGGUGCACAGCAGGGCGGGGUAGGACCCCAGCCCCU,-0.22

# Sample 3 — target: CCNE1, cyclin fold, Cln2 fusion (human); technique: yeast growth competition, sequencing; medium: yeast; setting: weak parent motif; baseline: not given; reading: higher = stronger binding
# Starting sequence: CDC6 docking peptide (human); TLKGRRLVFDNQL
Variant,normalised enrichment score
Q12D,1.08
K3F,0.425
L7F,-0.0854
G4D,0.41
F9P,0.52
R6K,-0.103
R6Q,-0.0284
N11V,0.321
K3G,0.0593
R6I,0.461
T1D,-0.175
G4Y,0.415
F9G,-0.496
R6L,0.388
L2P,0.406
Q12S,-0.112
D10Q,0.681
T1R,0.345
D10V,0.228
D10H,0.619
F9T,0.111
D10G,-0.559
L7K,1.02
V8W,0.914
Q12N,0.534

# Sample 4 — technique: RNA Bind-n-Seq; molecule type: RNA; medium: in vitro; concentration: not given; baseline: input RNA pool; reading: higher = stronger binding
# Target: RING finger protein unkempt homolog, zinc fingers 1-6, GST-SBP tag (UNK, Homo sapiens, UniProt Q9C0B0, residues 30-357)
# Setting: RNA with constant flanks, human and mouse sites, ends assumed
# Shared flanks, not repeated: GGGAGUUCUACAGUCCGACGAUC … CAACAGAGGAUUGAGCAUCA
# Construct (chain): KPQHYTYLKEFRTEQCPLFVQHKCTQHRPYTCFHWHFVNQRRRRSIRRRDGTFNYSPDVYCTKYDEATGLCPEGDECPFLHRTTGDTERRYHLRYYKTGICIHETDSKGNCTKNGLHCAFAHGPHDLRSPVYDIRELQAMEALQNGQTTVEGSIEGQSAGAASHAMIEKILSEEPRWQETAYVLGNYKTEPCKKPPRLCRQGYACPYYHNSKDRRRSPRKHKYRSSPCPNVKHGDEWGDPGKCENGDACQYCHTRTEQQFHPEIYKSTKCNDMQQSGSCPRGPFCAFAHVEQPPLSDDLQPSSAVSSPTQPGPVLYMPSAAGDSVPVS
Strand,bound/input enrichment [ratio]
UUGGAUUCAUUAGCAGAAAGCCCUGAGUCUGACUUUAUGUCUGCUGUGAAUGAGUUUGUGAUAGAAGAAAAUUUAUCGUCUCCAAACCCUAUAAGUGAUCCACAAAGUCCAGAAAUGAUG,0.13
AGAUUGUUCUCAAGCAGCUUGGUGGCCAUUGUCAGCCUCAAAGCUCCCAGGAAGCUGAAGGUUUGCCAUUUUAAGAAGGGAACUGAGAUAUGCAACUACAGCUACUCCAACACUAUCCUG,0.323
AGAAACAACAGUGGAGAUAUUCAAUAAGCUCAACCUUGAACAUAUUGCUACCAGUAGUGCAGUUUCAAAGGAACUCACCAGACUUUUGAAAAUACCAGUUGACACUUACAACAAUAUUUU,0.133
GGAAGUGGAAGAUCCUGUGGAUUCGGAUGGAGAAGUCCUGGGCUUUGAGAACCUCGUCUUUAGCAUUUUUGAGUUUGUCCAUGCCCUACUGGAGAACAGCAAGUUCAAAAGCACCGUUAA,0.542
CGAGAAGUAGGAAUCCCUCCUGAGCAGUCCUUGGAAACUGCGAAAGCAGUGAAGGAACGCUACAGUUAUGUCUGCCCAGAUUUAGUAAAAGAGUUUAACAAGUAUGACACCGAUGGGUCA,7.22
GAAAAUGGAAGGUGUGUUACUAAGCUGGAGAGCAUGGGGUUCCGAGUGGGGCAAGGACUGAUAGAAAGGUUUACGAAAGAUACUGCAAGGUUCAAGGAUGAAUUAGACAUCAUGAAGUUC,0.681
GAAGAAGCAUGCUUCACUCUCCAGUACUUAAACAAACUGUCCAUGAAACCAGAGCCUCUAUUUAGAAGUGUAGGCAAUACCAUUGAGCCUGUCAUCCUGUUCCAGAAGAUGGGAGUGGGC,0.297
GUCAUUUUUUUUCUUUGAAUAAAUGUCACUUUUUGAGGCAAAAGAAGGAACCGUGAACAUUUUAGACACCCUUUUCUUUGGGGUAGGCUCUUGCCCCAGGCGCCGGCUCUUCUCCCAAAA,0.605
AAAUCCCCCUGCCUAUAUUAUAAUGGAUCAUGCGAUAUCAGUAUGGGAAGUGUAUGACAUGGUUUAAAAAGAACUCAUUAUGAAAAACAAAACAAAAAACAGAAUCAAAAAUAAAAUAAA,0.304
AGUUCUGUUUAUCCCACAAAGGAUGAGGAGAACAACCCCCUGGAGACAGAGUAUGGCCUGUCUGUCUACAAGGACCAUCAGACCAUCACCAUCCAGGAGAUGCCAGAGAAGGCCCCUGCU,0.0594
UGUUUAGAGAAUUAUGGGAAACCUGGUAAGCAAAACUUUCCUCCCAGAUAAUUGCUUCCAAAUUCGAAGAGUUAGUCACCAAGAGAGCCAUAUGUAUGAAAGCGUAUCUGUGAAAGGUAG,1.02

# For quick reference, copied from above (sample 2):
Strand,log2 enrichment
CACAGACAACACGCACCCACACAGACACAGAGGGAAGGGGUUGGGAUGGGGACAGGGUGCACAGCAGGGCGGGGUAGGACCCCAGCCCCA,-0.143
UAACUUUAGGGGAGGAUCUGAUGGAUAUGGCAGUGGACGUGGAUUUGGGGAUGGCUAUAAUGGGUAUGGAGGAGGACCUGGAGGUGGCAA,-0.153
UCAAGUCCUGUGCUACACAUCGUAUGUACCGAAUCGGAAAAAGGAAAGGAAAGGAAAGUAUUAUGUUACGCCGUUCGGAUCUGCACUUCC,-0.627
AUGGAUGACCCCUCUGUGGGCCCCAAGAUCCCCCAGGCUUUGGAGAAGAUCCUGCAGCUGAAGGAGAGCCGCCAGGAAGAGAUGAAUUCU,1.07
